Assay results from different studies.
Every numbered part comes from another study and shows a few of its results, in no order.
Chain of UniProt P29317 (whole entry, looked up): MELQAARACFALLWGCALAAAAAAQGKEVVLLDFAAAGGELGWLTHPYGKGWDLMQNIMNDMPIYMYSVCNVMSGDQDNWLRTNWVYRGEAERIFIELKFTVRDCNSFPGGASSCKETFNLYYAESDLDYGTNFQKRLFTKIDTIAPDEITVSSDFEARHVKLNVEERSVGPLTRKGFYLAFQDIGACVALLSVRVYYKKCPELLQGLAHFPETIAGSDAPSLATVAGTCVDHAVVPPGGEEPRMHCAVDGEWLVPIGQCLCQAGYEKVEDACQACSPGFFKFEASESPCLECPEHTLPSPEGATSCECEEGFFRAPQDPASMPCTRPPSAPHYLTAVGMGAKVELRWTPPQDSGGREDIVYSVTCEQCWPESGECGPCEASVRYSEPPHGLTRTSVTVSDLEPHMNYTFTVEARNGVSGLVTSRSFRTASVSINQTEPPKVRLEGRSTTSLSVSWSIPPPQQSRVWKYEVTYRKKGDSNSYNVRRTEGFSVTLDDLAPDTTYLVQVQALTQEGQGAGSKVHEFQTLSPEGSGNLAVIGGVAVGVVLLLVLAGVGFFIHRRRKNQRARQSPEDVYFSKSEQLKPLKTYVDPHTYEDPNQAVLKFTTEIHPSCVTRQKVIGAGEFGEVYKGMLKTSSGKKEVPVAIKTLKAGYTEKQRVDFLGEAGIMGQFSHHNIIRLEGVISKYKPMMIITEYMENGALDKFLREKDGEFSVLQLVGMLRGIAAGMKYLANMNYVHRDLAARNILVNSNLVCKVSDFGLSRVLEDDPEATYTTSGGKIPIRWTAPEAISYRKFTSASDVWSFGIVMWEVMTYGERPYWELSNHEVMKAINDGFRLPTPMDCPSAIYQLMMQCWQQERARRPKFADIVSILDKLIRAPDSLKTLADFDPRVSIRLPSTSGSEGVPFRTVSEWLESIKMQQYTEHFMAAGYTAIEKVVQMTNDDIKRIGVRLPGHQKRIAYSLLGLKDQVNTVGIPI
Chain of UniProt Q9BQI3 (whole entry, looked up): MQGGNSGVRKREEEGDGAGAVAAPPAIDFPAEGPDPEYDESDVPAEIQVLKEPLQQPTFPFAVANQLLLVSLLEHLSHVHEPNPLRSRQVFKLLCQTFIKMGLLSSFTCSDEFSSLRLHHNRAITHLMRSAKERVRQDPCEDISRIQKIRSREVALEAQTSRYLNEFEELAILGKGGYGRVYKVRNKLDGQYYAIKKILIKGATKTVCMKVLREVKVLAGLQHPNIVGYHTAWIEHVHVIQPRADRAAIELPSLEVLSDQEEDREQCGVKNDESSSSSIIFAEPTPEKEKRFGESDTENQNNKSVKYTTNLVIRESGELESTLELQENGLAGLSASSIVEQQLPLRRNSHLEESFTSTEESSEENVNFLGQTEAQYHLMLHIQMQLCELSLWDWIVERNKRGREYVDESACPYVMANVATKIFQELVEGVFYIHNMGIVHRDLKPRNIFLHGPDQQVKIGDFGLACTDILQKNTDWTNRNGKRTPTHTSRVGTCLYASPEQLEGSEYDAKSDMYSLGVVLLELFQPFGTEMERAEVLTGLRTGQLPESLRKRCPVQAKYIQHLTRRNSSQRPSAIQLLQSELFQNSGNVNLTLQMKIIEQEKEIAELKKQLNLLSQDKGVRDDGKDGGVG
Chain of UniProt Q14012 (whole entry, looked up): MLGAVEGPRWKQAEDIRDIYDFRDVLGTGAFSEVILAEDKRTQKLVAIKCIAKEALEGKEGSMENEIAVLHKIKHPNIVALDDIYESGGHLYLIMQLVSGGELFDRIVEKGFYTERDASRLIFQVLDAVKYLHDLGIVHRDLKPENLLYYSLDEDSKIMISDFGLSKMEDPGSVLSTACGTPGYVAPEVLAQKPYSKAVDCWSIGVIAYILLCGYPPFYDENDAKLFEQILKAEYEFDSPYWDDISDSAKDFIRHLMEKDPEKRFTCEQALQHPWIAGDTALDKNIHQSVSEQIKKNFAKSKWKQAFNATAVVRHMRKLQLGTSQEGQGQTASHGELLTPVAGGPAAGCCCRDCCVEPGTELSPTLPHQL
Chain of UniProt Q05513 (whole entry, looked up): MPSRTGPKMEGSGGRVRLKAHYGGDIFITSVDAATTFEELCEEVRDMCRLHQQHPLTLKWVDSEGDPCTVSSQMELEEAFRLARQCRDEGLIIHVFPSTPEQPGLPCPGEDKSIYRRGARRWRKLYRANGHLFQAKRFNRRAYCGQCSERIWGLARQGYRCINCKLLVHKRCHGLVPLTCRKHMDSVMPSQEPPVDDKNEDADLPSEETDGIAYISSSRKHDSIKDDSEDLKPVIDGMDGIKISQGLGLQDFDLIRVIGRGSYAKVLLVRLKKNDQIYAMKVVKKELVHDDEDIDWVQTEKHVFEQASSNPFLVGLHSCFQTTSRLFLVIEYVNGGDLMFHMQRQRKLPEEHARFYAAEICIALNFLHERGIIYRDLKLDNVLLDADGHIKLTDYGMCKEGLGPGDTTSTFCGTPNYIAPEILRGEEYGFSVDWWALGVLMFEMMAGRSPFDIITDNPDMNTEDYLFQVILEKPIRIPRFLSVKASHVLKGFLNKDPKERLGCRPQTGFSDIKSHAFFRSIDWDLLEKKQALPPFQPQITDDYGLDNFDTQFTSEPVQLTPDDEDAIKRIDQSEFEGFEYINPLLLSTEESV
Chain of UniProt Q38829 (whole entry, looked up): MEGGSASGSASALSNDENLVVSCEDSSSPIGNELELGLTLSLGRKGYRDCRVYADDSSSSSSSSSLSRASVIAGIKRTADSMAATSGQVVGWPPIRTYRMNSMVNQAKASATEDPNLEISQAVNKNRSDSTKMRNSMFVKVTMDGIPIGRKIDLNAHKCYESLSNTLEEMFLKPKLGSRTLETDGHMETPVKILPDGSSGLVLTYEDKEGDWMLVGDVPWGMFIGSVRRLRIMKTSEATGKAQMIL
Chain of UniProt P42336 (whole entry, unmodified, looked up): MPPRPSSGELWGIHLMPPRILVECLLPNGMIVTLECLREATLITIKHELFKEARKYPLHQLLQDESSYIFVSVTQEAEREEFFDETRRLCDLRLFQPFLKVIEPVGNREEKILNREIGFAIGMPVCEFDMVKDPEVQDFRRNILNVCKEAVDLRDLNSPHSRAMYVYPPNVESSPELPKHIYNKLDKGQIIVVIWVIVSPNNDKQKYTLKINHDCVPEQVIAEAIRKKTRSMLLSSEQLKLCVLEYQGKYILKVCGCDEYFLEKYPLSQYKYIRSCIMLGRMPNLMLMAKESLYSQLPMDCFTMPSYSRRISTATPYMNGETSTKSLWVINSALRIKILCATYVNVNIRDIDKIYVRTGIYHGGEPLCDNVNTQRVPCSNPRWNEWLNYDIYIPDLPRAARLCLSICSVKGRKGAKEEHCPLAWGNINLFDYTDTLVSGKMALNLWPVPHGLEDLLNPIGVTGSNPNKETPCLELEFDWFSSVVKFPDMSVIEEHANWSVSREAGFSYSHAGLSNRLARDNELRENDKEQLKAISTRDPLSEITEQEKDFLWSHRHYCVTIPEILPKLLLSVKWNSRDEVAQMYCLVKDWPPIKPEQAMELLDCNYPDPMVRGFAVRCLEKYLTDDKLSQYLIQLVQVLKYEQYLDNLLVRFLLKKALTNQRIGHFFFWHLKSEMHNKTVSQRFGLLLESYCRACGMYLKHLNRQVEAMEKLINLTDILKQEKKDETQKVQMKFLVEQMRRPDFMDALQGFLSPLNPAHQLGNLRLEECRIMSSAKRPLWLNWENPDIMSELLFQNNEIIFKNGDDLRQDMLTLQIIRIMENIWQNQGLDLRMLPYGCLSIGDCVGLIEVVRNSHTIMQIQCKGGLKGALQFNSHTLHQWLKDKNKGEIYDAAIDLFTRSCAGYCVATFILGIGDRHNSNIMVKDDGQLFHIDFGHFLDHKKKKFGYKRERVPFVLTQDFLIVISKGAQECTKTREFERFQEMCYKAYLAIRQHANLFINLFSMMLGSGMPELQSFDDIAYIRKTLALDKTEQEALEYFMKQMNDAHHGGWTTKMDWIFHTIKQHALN
Chain of UniProt Q9HBY8 (whole entry, looked up): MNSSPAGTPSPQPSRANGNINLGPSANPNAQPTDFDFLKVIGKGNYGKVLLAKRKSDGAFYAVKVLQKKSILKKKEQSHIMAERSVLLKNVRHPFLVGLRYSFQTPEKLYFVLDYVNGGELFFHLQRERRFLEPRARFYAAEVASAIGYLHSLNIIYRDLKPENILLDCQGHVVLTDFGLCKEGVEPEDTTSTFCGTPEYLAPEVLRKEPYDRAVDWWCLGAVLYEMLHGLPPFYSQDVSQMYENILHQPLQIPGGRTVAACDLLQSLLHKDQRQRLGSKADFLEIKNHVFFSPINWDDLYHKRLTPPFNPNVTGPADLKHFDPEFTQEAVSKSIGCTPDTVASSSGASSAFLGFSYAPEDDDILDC
Chain of UniProt P93830 (whole entry, looked up): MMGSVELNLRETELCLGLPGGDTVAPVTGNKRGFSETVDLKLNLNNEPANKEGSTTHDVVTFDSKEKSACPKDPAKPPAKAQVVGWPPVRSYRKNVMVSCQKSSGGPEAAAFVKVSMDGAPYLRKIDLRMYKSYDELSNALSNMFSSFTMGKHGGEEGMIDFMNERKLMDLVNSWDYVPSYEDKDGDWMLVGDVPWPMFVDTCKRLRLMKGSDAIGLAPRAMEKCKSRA

Block 1 — Sequence: B1 (IAA5); method: two-hybrid; direction: higher = firmer interaction
B1: IAA5 (Arabidopsis thaliana, UniProt P33078); chain MANESNNLGLEITELRLGLPGDIVVSGESISGKKRASPEVEIDLKCEPAKKSQVVGWPPVCSYRRKNSLERTKSSYVKVSVDGAAFLRKIDLEMYKCYQDLASALQILFGCYINFDDTLKESECVPIYEDKDGDWMLAGDVPWEMFLGSCKRLRIMKRSCNRG
| partner | setting | baseline | positive tests |
| --- | --- | --- | --- |
| IAA15 (Arabidopsis thaliana, UniProt Q9C966) |  | out of 4 tests | 3 |
| IAA11 (Arabidopsis thaliana, UniProt Q38829) | weak activation fusion | out of 4 tests | 1 |
| ARF8 699-811 (Arabidopsis thaliana, UniProt Q9FGV1) |  | out of 2 tests | 1 |
| IAA17 (Arabidopsis thaliana, UniProt P93830) |  | out of 4 tests | 4 |
| ARF19 948-1086 (Arabidopsis thaliana, UniProt Q8RYC8) |  | out of 4 tests | 4 |
| ARF9 519-638 (Arabidopsis thaliana, UniProt Q9XED8) | weak activation fusion | out of 4 tests | 0 |

Block 2 — method: RNA Bind-n-Seq; molecule type: RNA; medium: in vitro; concentration: 1 µM; setting: whole 134-nt RNA, ends assumed; with: 150 mM KCl; baseline: input library; direction: higher = stronger binding
Target: Ras GTPase-activating protein-binding protein 1, C-terminal RGG region (G3BP1, Homo sapiens, UniProt Q13283)
Chain of UniProt Q13283 (whole entry, looked up): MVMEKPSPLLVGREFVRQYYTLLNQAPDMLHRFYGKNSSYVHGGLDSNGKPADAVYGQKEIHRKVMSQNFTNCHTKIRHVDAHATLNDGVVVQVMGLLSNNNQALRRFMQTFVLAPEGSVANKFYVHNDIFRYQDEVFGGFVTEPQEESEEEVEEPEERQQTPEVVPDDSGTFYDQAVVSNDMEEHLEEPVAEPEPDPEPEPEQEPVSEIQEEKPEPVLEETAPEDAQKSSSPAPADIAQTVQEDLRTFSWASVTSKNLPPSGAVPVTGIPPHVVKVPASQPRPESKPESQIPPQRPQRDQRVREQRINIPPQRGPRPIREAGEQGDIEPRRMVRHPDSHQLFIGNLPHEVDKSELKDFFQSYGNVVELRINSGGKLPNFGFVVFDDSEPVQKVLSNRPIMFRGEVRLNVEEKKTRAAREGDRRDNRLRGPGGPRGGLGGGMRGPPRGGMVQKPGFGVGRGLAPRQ
Constant ends, left off below: GGGAGUUCUACAGUCCGACGAUC … UGGAAUUCUCGGGUGUCAAGG
| Sequence | log2 enrichment |
| --- | --- |
| UACCUUUAGAGGAGGAUCUGAUGGAUAUGGCAGUGGACGUGGAUUUGGGGAUGGCUAUAAUGGGUAUGGAGGAGGACCUGGAGGUGGCAA | -1.62 |
| ACCAUGCAGGUGGGCAUCUUUGGGAAGUGGGGCAAGGGGGGGAUAGGGAGGGGGGUCACACUUUGGGAACAGGUGGUCCCAGGUCGUUUC | 1.9 |
| CUCAAGUCCUGUGCUACACAUCGUAUGUACCGAAUCGGGAAGGGAAGGGGAAGGAAAGUAUUAUGUUACGCCGUUCGGAUCUGCACUUCC | -0.537 |
| GCAAAAAGUAAAAACAAAUGGAAAUGCUUCGGAUAGUGGCAGGGGUGGGGGUUGCUAAGGAAAGGGUGGGAUGGGAGUGGGUAAAGAGUU | 1.7 |
| CCUCAAGUCCUGUGCUACACAUCGUAUGUACCGAAUCGGGUGGGUGGGAGGGAAAGUAUUAUGUUACGCCGUUCGGAUCUGCACUUCCAG | 1.16 |
| CCUGUGCUACACAUCGUAUGUACCGAAUCGGGUUUUUGGGUUUUUUUGGGAAAAAAAGGGAAAGUAUUAUGUUACGCCGUUCGGAUCUGC | -1.92 |
| UGGGAGGUGGAUUUUGUUUAUUUUUUUAGCUCAUUUCCAUGGGUGGGAAUUUUUUUUUAAUAUGUGUCAUGAAUAAAGUUGUUUUUGAAA | 3.13 |
| AAGUCCUGUGCUACACAUCGUAUGUACCGAAUCGGGAAAGGGGAAAGGGGAAAGGGGAAAGUAUUAUGUUACGCCGUUCGGAUCUGCACU | 1.23 |

Block 3 — effect on: enzyme activity; mode: inhibitor; concentration: 0.5 µM; baseline: control
SMILES: CCCNC(=O)Nc1ccc(Oc2ncnc3cc(OC)c(OC)cc23)cc1Cl
| target | remaining activity |
| --- | --- |
| EPHA6 (Homo sapiens, UniProt Q9UF33) | 77.7% |
| MUSK (Homo sapiens, UniProt O15146) | 101% |
| CAMK1 (Homo sapiens, UniProt Q14012) | 96.7% |
| RPS6KA3 (Homo sapiens, UniProt P51812) | 94.9% |
| SGK2 (Homo sapiens, UniProt Q9HBY8) | 97.1% |
| CLK1 (Homo sapiens, UniProt P49759) | 96.2% |
| Cyclin-dependent kinase 2, with cyclin E (CDK2, Homo sapiens, UniProt P24941) | 95.2% |
| CLK2 (Homo sapiens, UniProt P49760) | 89.5% |
| TEC (Homo sapiens, UniProt P42680) | 119% |
| PRKCQ (Homo sapiens, UniProt Q04759) | 102% |
| PRKCZ (Homo sapiens, UniProt Q05513) | 102% |
| EPHA2 (Homo sapiens, UniProt P29317) | 104% |
| TYRO3 (Homo sapiens, UniProt Q06418) | 102% |
| SIK2 (Homo sapiens, UniProt Q9H0K1) | 101% |
| JAK1 (Homo sapiens, UniProt P23458) | 99.2% |
| SRPK1 (Homo sapiens, UniProt Q96SB4) | 102% |

Block 4 — effect on: cell-free assay; method: competition with immobilised ligand; concentration: 1 µM
Structure (SMILES): CN([C@@H]1CCc2c(CC(=O)O)c3cc(S(C)(=O)=O)ccc3n2C1)S(=O)(=O)c1ccc(F)cc1
| target | remaining binding |
| --- | --- |
| Ribosomal protein S6 kinase alpha-6, N-terminal kinase domain (RPS6KA6, Homo sapiens, UniProt Q9UK32) | 71% |
| ULK2 (Homo sapiens, UniProt Q8IYT8) | 100% |
| DYRK2 (Homo sapiens, UniProt Q92630) | 94% |
| PIK3CA (Homo sapiens, UniProt P42336, M1043I) | 98% |
| NTRK3 (Homo sapiens, UniProt Q16288) | 100% |
| eIF-2-alpha kinase GCN2, C-terminal kinase domain (EIF2AK4, Homo sapiens, UniProt Q9P2K8, S808G) | 71% |
| PRKAA1 (Homo sapiens, UniProt Q13131) | 85% |
| EIF2AK1 (Homo sapiens, UniProt Q9BQI3) | 90% |
| FGFR3 (Homo sapiens, UniProt P22607) | 100% |
| BRSK2 (Homo sapiens, UniProt Q8IWQ3) | 100% |
| ZAP70 (Homo sapiens, UniProt P43403) | 100% |
| MARK1 (Homo sapiens, UniProt Q9P0L2) | 89% |
| NEK2 (Homo sapiens, UniProt P51955) | 100% |

Repeated from above (block 4):
| target | remaining binding |
| --- | --- |
| BRSK2 (Homo sapiens, UniProt Q8IWQ3) | 100% |
| eIF-2-alpha kinase GCN2, C-terminal kinase domain (EIF2AK4, Homo sapiens, UniProt Q9P2K8, S808G) | 71% |
| MARK1 (Homo sapiens, UniProt Q9P0L2) | 89% |
| EIF2AK1 (Homo sapiens, UniProt Q9BQI3) | 90% |
| DYRK2 (Homo sapiens, UniProt Q92630) | 94% |
| PIK3CA (Homo sapiens, UniProt P42336, M1043I) | 98% |
| NTRK3 (Homo sapiens, UniProt Q16288) | 100% |
